Published values from different studies.
Compare with care: the assays were run in different laboratories. Numbers after ± are the reported error.
Cell line: MDA-MB-231

Cc1cc(C=O)cc(C)c1Oc1cc(Nc2ccc(C#N)cc2)nc2cnccc12 — IC50 (48 h): 85.7 ± 8 µM
C[C@@H]1CC[C@@H]([C@](O)(CNCc2ccccc2F)COCc2ccccc2)[C@H](OCc2ccccc2)C1 — IC50 (cell growth or viability, MTT; 72 h): 2.9 µM
O=C(O)CNc1nc(O)nc(NNC(=O)c2ccc(Nc3nc(Nc4ccc(C(=O)NNc5nc(O)nc(NCC(=O)O)n5)cc4)nc(Nc4ccc(C(=O)NNc5nc(O)nc(NCC(=O)O)n5)cc4)n3)cc2)n1 — IC50 (cell growth or viability, MTT; 72 h): 0.0866 µM
CC/C(=C(\c1ccccc1)c1ccc(OCCN(C)CCCCCCC(=O)NCCc2c[nH]c3ccc(OC)cc23)cc1)c1ccccc1 — IC50 (cell survival, MTT; day 9, dosed days 2, 4, 7): 5.3 µM
CC(C)c1cccc(C(C)C)c1N=[C](NCc1ccc(N)cc1)[AuH][Cl] — IC50 (cell growth or viability): > 100 µM
CCN(CC)c1ccc2c(c1)[O][Pd]([CH2]C#N)[N](c1ccccc1C)c1ncccc1N=C2 — IC50 (cell growth or viability, MTT; 48 h): 34.6 µM
CC(C)=CCc1c2c(c(O)c3c(=O)c(-c4ccc(O)cc4)coc13)C=CC(C)(C)O2 — IC50 (cell growth or viability, MTT; 24 h): 13.9 µM
CN[C@@H](C)C(=O)N[C@H]1CN(C(=O)Cc2ccccc2)CC[C@H]2CC[C@@H](C(=O)NC(c3ccccc3)c3ccccc3)N2C1=O — IC50 (cell growth or viability; 96 h): 0.052 µM
Cc1cc(-c2ccccc2)c2ccc3c(-c4ccccc4)cc(C)[n+]4c3c2[n+]1[Re-2]4(=[C]=O)(=[C]=O)(=[C]=O)[O]S(=O)(=O)c1ccc2ccccc2c1 — IC50 (cell growth or viability, resazurin; 72 h): 6.34 µM
C=CC(=C)CC[C@]1(C)[C@H](C)CC[C@@]23C(=C[C@H](OC(=O)CCCCC)C[C@@H]12)[C@@H](OC(C)=O)O[C@H]3OC(C)=O — IC50 (cell growth or viability, SRB): 0.49 µM
CC(=O)N[C@@H](Cc1c[nH]c2ccccc12)C(=O)[O][Re-2]1(=[C]=O)(=[C]=O)(=[C]=O)[n+]2ccc(-c3ccccc3)c3ccc4c(-c5ccccc5)cc[n+]1c4c32 — IC50 (cell growth or viability, resazurin; 72 h): 1.99 µM
C=CC(OC(C)=O)c1ccccc1 (stereo not shown) — IC50 (MTT; 24 h): > 50 µM
CC(C)c1cccc(C(C)C)c1[N+]#[C][Pt-]([Cl])([Cl])=[C](Nc1ccc(CN[C](Nc2c(C(C)C)cccc2C(C)C)=[Au][Cl])cc1)Nc1c(C(C)C)cccc1C(C)C — IC50 (cell growth or viability): > 100 µM
CC(=O)Oc1ccccc1C(=O)[O][Re-2]1(=[C]=O)(=[C]=O)(=[C]=O)[n+]2c(C)cc(-c3ccccc3)c3ccc4c(-c5ccccc5)cc(C)[n+]1c4c32 — IC50 (cell growth or viability, resazurin; 72 h): 2.41 µM
CC(C)CN(CC(=O)N1CCN(CC(OCc2ccc3ccccc3c2)c2ccc(Cl)cc2Cl)CC1)CC(C)C (stereo not shown) — IC50 (cell growth or viability, MTT; 24 h): 1.66 µM
CN[C@@H](C)C(=O)N[C@H]1CN(C(=O)Cc2ccccc2)CC[C@H]2CC[C@@H](C(=O)NCc3ccccc3F)N2C1=O — IC50 (cell growth or viability; 96 h): 0.221 µM
Cn1ccn(N=Cc2ccccc2SSc2ccccc2C=Nn2ccn(C)c2=S)c1=S — IC50 (cell growth or viability, MTT; 72 h): 0.35 µM
COc1cc(/C=C/C(=O)/C=C/c2cn(-c3ccccc3)nc2C(=O)O)cc(OC)c1O — IC50 (cell growth; 72 h): > 25 µM
CC12CCC3c4ccc(Oc5no[n+]([O-])c5S(=O)(=O)c5ccccc5)cc4CCC3C1CCC2O (stereo not shown) — IC50 (cell growth or viability, MTT; 48 h): 0.499 µM
Oc1ccc2c(c1)OCc1c-2oc2cc3c(cc12)OCO3 — IC50 (cell growth or viability, MTT; 72 h): 25.4 µM
COc1cc(/C=C/C(=O)NCCCCCCNC2=C3C[C@@H](C)C[C@H](OC)[C@H](O)[C@@H](C)/C=C(\C)[C@H](OC(N)=O)[C@@H](OC)/C=C\C=C(/C)C(=O)NC(=CC2=O)C3=O)ccc1O — IC50 (cell growth or viability, MTT; 72 h): 0.27 µM
CCCCCCCCCCCCCCCOC(=O)/C=C/c1cc(O)c(O)c(OC)c1 — IC50 (cell viability, MTT; 48 h, serum-free medium): 4.1 ± 0.3 µg/mL
CC(C)(C)N=[C](NCc1cccc(N)c1)[AuH][Cl] — IC50 (cell growth or viability): > 100 µM
C[C@@H]1CC[C@@H]([C@@](O)(CNCc2ccc(F)cc2)COCc2ccc(F)cc2)[C@H](OCc2ccc(F)cc2)C1 — IC50 (cell growth or viability, MTT; 72 h): 1.9 µM
Cc1cc(C)c([N+]#[C][Pt-]([Cl])([Cl])=[C](Nc2cccc(CN[C](Nc3c(C(C)C)cccc3C(C)C)=[Au][Cl])c2)Nc2c(C)cc(C)cc2C)c(C)c1 — IC50 (cell growth or viability): > 100 µM
C=C[CH2][Pd-]([Cl])[Cl].Cc1cc(C)c(-n2c[n+](-c3c(C)cc(C)cc3C)c3c2-c2cccc4cccc-3c24)c(C)c1 — IC50 (cell growth or viability, MTT; 72 h): 7 µM
CC12CCC3c4ccc(Oc5no[n+]([O-])c5S(=O)(=O)c5ccccc5)c(Br)c4CCC3C1CCC2O (stereo not shown) — IC50 (cell growth or viability, MTT; 48 h): 0.078 µM
CCCC(=O)Oc1c(C)c(OC)c2c(/C=C/c3ccccc3)c(CC)c(=O)oc2c1C — IC50 (cell growth or viability, SRB; 72 h): > 50 µM
Oc1ccc(Br)cc1C=NNC(=S)Nc1ccccc1 — IC50 (cell growth or viability, MTT; 72 h): 1.5 µM
CN[C@@H](C)C(=O)N[C@H]1CN(C(=O)Cc2ccccc2)CC[C@H]2CC[C@@H](C(=O)NCc3ccc(C(F)(F)F)cc3)N2C1=O — IC50 (cell growth or viability; 96 h): 0.307 µM
CCn1cc[n+](CC)[c]1[Au-]([Cl])([Cl])[Cl] — IC50 (cell growth or viability, crystal violet; 96 h): 10.6 µM
CCCCCCCCCCCCCCCC(=O)Oc1ccc(CO)cc1OC(=O)c1ccccc1 — IC50 (cell viability, MTT; 48 h, serum-free medium): 8.6 ± 0.9 µg/mL
C[C@@H]1O[C@@H](OC(=O)/C=C/c2ccc(O)cc2)[C@H](OC(=O)/C=C/c2ccc(O)cc2)[C@H](O)[C@H]1O — IC50 (cell growth or viability, MTT): 17.7 µM
C1=CCCC=CCC1.F[P-](F)(F)(F)(F)F.[Pt+][c]1ccccc1P(=Nc1ccccc1)(c1ccccc1)c1ccccc1 — IC50 (cell growth or viability, MTT; 24 h): 0.84 µM
c1ccc(-c2nn(-c3ccccn3)[n+](-c3ccccc3)n2)cc1 — IC50 (cell growth or viability, resazurin; 72 h): 16 µM
Cc1ccc(C(C)C)cc1.O=C(N=P(c1ccccc1)(c1ccccc1)c1ccccc1)c1ccccn1.[Cl-].[Cl][Ru+] — IC50 (cell growth or viability, resazurin): 3.7 µM
CCN(CC)CCO/N=C1/C=C2CCC3C(CC[C@]4(C)/C(=C/c5ccccn5)CCC34)[C@@]2(C)CC1 (stereo partly shown) — IC50 (cell growth or viability, MTT; 72 h): > 100 µM

A few entries again:
CC/C(=C(\c1ccccc1)c1ccc(OCCN(C)CCCCCCC(=O)NCCc2c[nH]c3ccc(OC)cc23)cc1)c1ccccc1 — IC50 (cell survival, MTT; day 9, dosed days 2, 4, 7): 5.3 µM
CC(C)c1cccc(C(C)C)c1N=[C](NCc1ccc(N)cc1)[AuH][Cl] — IC50 (cell growth or viability): > 100 µM
